Published values from different studies.
Protocols differ between the studies behind these lines. “And” joins repeats or separate records; there may be more than shown. ± marks the error that the study gave.
Tripartite terminase subunit 3 C-terminal nuclease domain: Tripartite terminase subunit 3, C-terminal nuclease domain (Human betaherpesvirus 5, UniProt P16732)
APP: Amyloid-beta precursor protein (APP, Homo sapiens, UniProt P05067)

COc1cc2c(Oc3ccc4[nH]c(C)cc4c3F)ccnc2cc1OCC1(N)CC1  grade 3 Headache (paediatric recurrent refractory sarcoma; 8 mg): 0%
CC(C(=O)Nc1ccc2c(c1)B(O)OC2)c1cccc(Oc2ccccc2)c1 (centres unmarked)  inhibition (Genome polyprotein, NS2B-NS3 protease (dengue virus type 2, UniProt P29990); enzyme activity, FRET; dengue virus serotype 2; 50 µM, together with: substrate 50 µM): ≤ 10%
CC[C@H](C)[C@H](NC(=O)[C@H](Cc1ccccc1)NC(=O)[C@H](CCC(=O)O)NC(=O)[C@H](CCCNC(=N)N)NC(=O)[C@H](C)NC(=O)[C@H](C)NC(=O)[C@H](CCC(N)=O)NC(=O)[C@H](CCC(=O)O)NC(=O)[C@H](CCC(=O)O)NC(=O)[C@H](CC(C)C)NC(=O)[C@H](Cc1ccc(O)cc1)NC(=O)[C@H](CO)NC(=O)[C@H](CO)NC(=O)[C@@H](NC(=O)[C@H](CC(=O)O)NC(=O)[C@H](CO)NC(=O)[C@@H](NC(=O)[C@H](Cc1ccccc1)NC(=O)[C@@H](NC(=O)CNC(=O)[C@H](CCC(=O)O)NC(=O)[C@H](C)NC(=O)CCc1c[nH]cn1)[C@@H](C)O)[C@@H](C)O)C(C)C)C(=O)N[C@@H](C)C(=O)N[C@@H](Cc1c[nH]c2ccccc12)C(=O)N[C@@H](CC(C)C)C(=O)N[C@H](C(=O)N[C@@H](CCCNC(=N)N)C(=O)NCC(=O)N[C@@H](CCCNC(=N)N)C(=O)N[C@@H](CCCCNC(=O)COCCOCCNC(=O)COCCOCCNC(=O)CC[C@H](NC(=O)CCCCCCCCCCCCCCCCC(=O)O)C(=O)O)C(=O)NCC(=O)NCC(=O)N[C@@H](CO)C(=O)N[C@@H](CCCCNc1c(NCCCCCN(O)C(=O)CCC(=O)NCCCCCN(O)C(=O)CCC(=O)NCCCCCN(O)C(C)=O)c(=O)c1=O)C(=O)O)C(C)C [zirconium-89 labelled]  tissue uptake (rat, blood; sc, 3 nmol/kg, 72 h, ex vivo): 0.04 %ID/g
C[C@H](C(=O)N[C@H]1COc2ccccc2[C@@H]1S(C)(=O)=O)c1ccc(F)cc1  inhibition (protein kinase C, rat; enzyme activity; 10 µM, Eurofins selectivity panel): 26%
Cn1cc(-c2cc(F)cc(N3CCn4c(cc5c4CCCC5)C3=O)c2CO)cc(Nc2ccc(N3CCN(C4COC4)CC3)cn2)c1=O  inhibition (MAPK14 (Homo sapiens, UniProt Q16539); kinase activity, inhibitor, SelectScreen; 0.1 µM, together with: ATP at apparent Km): 14%
C[C@@H]1N=C(c2ccccc2F)c2cc(Br)ccc2-n2cnc(C(=O)O)c21  inhibition (sigma receptor 1; binding; 10 µM): -2.9 ± 15.6%
Clc1ccc2c(C3CCN(CCc4c[nH]c5ccccc45)CC3)c[nH]c2c1  inhibition (PDE4D (Homo sapiens, UniProt Q08499); enzyme activity, inhibitor; 10 µM): 6%
COc1ccc(N2C(=O)N(c3c(C)cccc3Cl)Cc3cnc(Nc4ccc(C5CCN(C)CC5)cc4OC)nc32)nc1  inhibition (DYRK3 (Homo sapiens, UniProt O43781); kinase activity; 0.5 µM): 7%
O=C(Nc1ccc2c(c1)B(O)OC2)c1cccc(NCc2ccccc2)c1  inhibition (Genome polyprotein, NS2B-NS3 protease (dengue virus type 2, UniProt P29990); enzyme activity, FRET; dengue virus serotype 2; 50 µM, together with: substrate 50 µM): 29 ± 4%
C[C@@H](O)[C@@H](CO)NC(=O)[C@@H](CCCNC(=N)N)NC(=O)[C@@H]1CCCN1C(=O)[C@@H]1CSSC[C@H](NC(=O)[C@H](Cc2ccccc2)NC(=O)CN2CCN(CC(=O)O)CCN(CC(=O)O)CCN(CC(=O)O)CC2)C(=O)N[C@@H](Cc2ccc(O)cc2)C(=O)N[C@@H](Cc2ccccc2)C(=O)N[C@@H](CCC(N)=O)C(=O)N[C@@H](CC(N)=O)C(=O)N1 [gallium-68 labelled]  tissue uptake (Wistar rat, muscle; intravenous, 8 MBq, 60 min, group mean): 0.4 %ID/g
O=c1[nH]c2sc3c(c2c(=O)n1O)CCN(Cc1ccccc1)C3  inhibition (Tripartite terminase subunit 3 C-terminal nuclease domain; endonuclease activity, ELISA; 20 µM, together with: dsDNA): 88%
O=C(Nc1cccnn1)N1CCC(=Cc2cccc(Oc3ccc(C(F)(F)F)cn3)c2)CC1  inhibition (AVPR2 (Homo sapiens, UniProt P30518); binding; 10 µM, together with: [3H][Arg8]vasopressin): 4%
Cc1ccc(S(=O)(=O)Oc2ccc3c(c2)Oc2nc4c(c(N)c2C3c2ccc(Cl)c(Cl)c2)CCCC4)cc1 (centres unmarked)  inhibition (APP; Aβ42 self-aggregation, inhibitor, thioflavin T fluorescence; 100 µM): 75%
O=C1NCN(c2ccccc2)C12CCNCC2  inhibition (PDE6D (Homo sapiens, UniProt O43924); enzyme activity, inhibitor; 5 µM): 39.5%
CO[C@H]1C[C@@H]2CC[C@@H](C)[C@@](O)(O2)C(=O)C(=O)N2CCCC[C@H]2C(=O)O[C@H]([C@H](C)C[C@@H]2CC[C@@H](OC(=O)NCCOCCOCCOCCOCCOCCOCCOCCOCCC(=O)N3CCc4cc(Cn5nc(-c6ccc7oc(N)nc7c6)c6c(N)ncnc65)ccc4C3)[C@H](OC)C2)C[C@@H](O)[C@H](C)/C=C(\C)[C@@H](O)[C@@H](OC)C(=O)[C@H](C)C[C@H](C)/C=C/C=C/C=C/1C  any TRAE incidence (phase 1 dose escalation; advanced solid tumour patients; intravenous, 12 mg weekly, any grade): 75%
N#Cc1ccc(COc2cccc(C(=O)Nc3ccc4c(c3)B(O)OC4)c2)cc1  inhibition (Genome polyprotein, NS2B-NS3 protease (dengue virus type 2, UniProt P29990); enzyme activity, FRET; dengue virus serotype 2; 50 µM, together with: substrate 50 µM): 16 ± 1%
C[C@H]1CN(c2n[nH]c3nc(N[C@H]4CC[C@H](NS(=O)(=O)CCC(F)(F)F)CC4)ncc23)CCO1  remaining binding (AP-2 complex subunit sigma (Homo sapiens, UniProt P53680); Kinobeads competition, measured: AP2S1; 20 µM, unit not given; baseline: vehicle): 1.11
Nc1c2c(nc3c1C(c1cccc([N+](=O)[O-])c1)c1ccc(OCC(=O)c4ccc(Cl)cc4)cc1O3)CCCC2 (centres unmarked)  inhibition (APP; Aβ42 self-aggregation, inhibitor, thioflavin T fluorescence; 0.01 µM): 6.4%
COc1cc(CCC[P+](c2ccccc2)(c2ccccc2)c2ccccc2)c(OC)c2c1OCO2.[I-]  LC50 (TK-10; SRB): > -4 log M
COc1cc(Nc2ncc(F)c(Nc3ccc4c(n3)NC(=O)C(C)(C)O4)n2)cc(OC)c1OC  inhibition (PRKACB (Homo sapiens, UniProt P22694); KINOMEscan; 10 µM, PKAC-beta): 92%
O=[N+]([O-])c1ccc2c(c1)B(O)OC2  inhibition (Genome polyprotein, NS2B-NS3 protease (dengue virus type 2, UniProt P29990); enzyme activity, FRET; dengue virus serotype 2; 50 µM, together with: substrate 50 µM): ≤ 10%
Nc1ncnc2c1ncn2[C@@H]1O[C@H](C[C@@H](N)CC[C@H](N)C(=O)O)[C@@H](O)[C@H]1O  inhibition (Genome polyprotein, NS5 methyltransferase domain (Zika virus, UniProt Q32ZE1); NS5 enzyme activity, inhibitor; 0.7812 µM): 14.8%
Nc1ncnc2c1ncn2[C@@H]1O[C@@H]2COP(=O)(O)O[C@H]3[C@@H](O)[C@H](n4cnc5c(=O)[nH]cnc54)O[C@@H]3COP(=O)(O)O[C@H]2[C@H]1O  fold enrichment (West Nile virus; RNA sequencing, measured: immune system, adaptive, R-HSA-1280218; HFF-1 cells; concentration not given, upregulated pathway; baseline: WNV-infected untreated cells): 1.97
O=C(Nc1ccc2c(c1)B(O)OC2)c1cccc(OCc2ccccc2)n1  inhibition (Genome polyprotein, NS2B-NS3 protease (dengue virus type 2, UniProt P29990); enzyme activity, FRET; dengue virus serotype 2; 50 µM, together with: substrate 50 µM): 24 ± 7%
CN1CCN(c2cc(-c3ccncc3)c(-c3ccc4ccccc4c3)nn2)CC1  inhibition (CCR7 (Homo sapiens, UniProt P32248); antagonist, FLIPR; 10 µM): 4.3%
CC(=O)c1c(C)c2cnc(Nc3ccc(C4CCN(CCS(C)(=O)=O)CC4)cn3)nc2n(C2CCCC2)c1=O  clearance (human, dose-escalation trial, plasma; oral, 100 mg twice daily, day 1, single dose): 1480 mL/min
COc1ccc2[nH]c([S+]([O-])Cc3ncc(C)c(OC)c3C)nc2c1 (centres unmarked)  inhibition (GSTO1 (Homo sapiens, UniProt P78417); 5 µM): 100%
O=C(Nc1ccc2c(c1)B(O)OC2)c1ccccc1OCc1ccccc1  inhibition (Genome polyprotein, NS2B-NS3 protease (dengue virus type 2, UniProt P29990); enzyme activity, FRET; dengue virus serotype 2; 50 µM, together with: substrate 50 µM): 14 ± 5%
Oc1ccc2c3c1O[C@H]1[C@@H](O)CC[C@@]4(O)[C@@H](C2)N(CC2CCC2)CC[C@]314  log2 fold change (Retinoic acid-induced protein 3 (GPRC5A, Homo sapiens, UniProt Q8NFJ5); β-arrestin recruitment, TANGO luminescence, measured: GPRC5A; concentration not given; baseline: basal luminescence): 0.342
COCc1c(-c2cc3cc(C)cc(OC)c3s2)c2c(N)ncnn2c1CN1CCNC(=O)C1  inhibition (GABAA chloride channel (TBOB site); radioligand binding; 10 µM): 49%
O=C1c2ccccc2C(c2ccccc2F)C(=O)N1O (centres unmarked)  inhibition (Tripartite terminase subunit 3 C-terminal nuclease domain; endonuclease activity, ELISA; 20 µM, together with: dsDNA): 97%
O=C(c1ccc(Cl)cc1)N1CCN2C(=O)N(OC(=O)N3CCOc4ccccc43)C(=O)C2C1 (centres unmarked)  median ratio (ABHD17C (Homo sapiens, UniProt Q6PCB6); enzyme activity, inhibitor, MS-based ABPP; SW-620 in situ; 10 µM, 2 h, 37 °C; baseline: compound over DMSO, lower = stronger inhibition): 1.08
Nc1ccncc1  inhibition (Voltage-gated potassium channel, KQT; KCNQ2(Kv7.2)/KCNQ3(Kv7.3) (KCNQ3/KCNQ2, Homo sapiens, UniProt O43525+O43526); ion current, antagonist, automated patch clamp; HEK293; 30 µM): -5%
CC[C@H](C)[C@@H]1NC(=O)[C@@H]2CCCN2C(=O)[C@H](CC(C)C)NC(=O)[C@H](CC(C)C)NC(=O)CNC(=O)[C@@H](NC(=O)[C@@H](NC(=O)[C@H](CC(=O)O)NC(=O)CNC(=O)[C@@H](NC(=O)[C@H](C)NC(=O)CNC(=O)[C@H](CCCCN)NC(=O)[C@H](CC(C)C)NC(=O)[C@H](CC(C)C)NC(=O)[C@H](CCCCN)NC(=O)CNC(=O)[C@@H](NC(=O)[C@@H](N)CC(C)C)C(C)C)C(C)C)C(C)C)CSSC[C@@H](C(=O)O)NC1=O  log2 fold change (RNA-seq, measured: Cxcr5; mouse, traumatic brain injury model, frontal cortex and hippocampus; dose not given; baseline: TBI alone): -4.04
O=C(O[C@@H]1Cc2c(O)cc(O)cc2O[C@@H]1c1cc(=O)c(O)c2c(O)c(O)cc([C@H]3Oc4cc(O)cc(O)c4C[C@H]3O)c2c1)c1cc(O)c(O)c(O)c1  inhibition (PDIA6 (Homo sapiens, UniProt Q15084); di-eosin-GSSG reductase activity; 20 µM, 15 min): inhibited
Nc1c2c(nc3c1C(c1cccc([N+](=O)[O-])c1)c1ccc(OS(=O)(=O)c4ccc(F)cc4)cc1O3)CCCC2 (centres unmarked)  inhibition (APP; Aβ42 self-aggregation, inhibitor, thioflavin T fluorescence; 1 µM): 21%
CC(=O)N[C@@H]1C(N)C[C@](OC2C(O)[C@H](Oc3ccc([N+](=O)[O-])cc3)OC(CO)[C@@H]2O)(C(=O)O)OC1[C@H](O)[C@H](O)CO (some centres unmarked)  inhibition (Sialidase A (nanA, Streptococcus pneumoniae, UniProt P62575); 8 µM, pH 6): 9 ± 8.3%
CC(C)C[C@@H]1NC(=O)[C@H](CC(C)C)NC(=O)[C@H](Cc2c[nH]c3ccccc23)NC(=O)[C@H](CO)NC(=O)[C@H](Cc2c[nH]c3ccccc23)NC(=O)[C@@H]2CCCN2C(=O)[C@H](CC(C)C)NC(=O)[C@H](Cc2c[nH]cn2)NC(=O)[C@@H]2CCCN2C(=O)[C@H](CC(N)=O)NC(=O)[C@H](C)NC(=O)[C@H](Cc2ccc(O)cc2)NC(=O)[C@H](CS)NC(=O)[C@H](CCCCNC(=O)CN2CCN(CC(=O)O)CCN(CC(=O)O)CCN(CC(=O)O)CC2)NC1=O [lutetium-177 labelled]  tissue uptake (Balb/c mouse, female, 4T1 tumour, heart; intravenous, 3.7 MBq, 4 h): 0.08 ± 0.05 %ID
O=C(Nc1cnccc1Cl)N1CCN(Cc2ccc3c(c2)OC(F)(F)O3)CC1  inhibition (ADORA1 (Homo sapiens, UniProt P30542); binding; 10 µM, together with: [3H]DPCPX): 10%
CCN1CCc2c(sc3[nH]c(=O)n(O)c(=O)c23)C1  inhibition (Tripartite terminase subunit 3 C-terminal nuclease domain; endonuclease activity, ELISA; 20 µM, together with: dsDNA): 88%
FC(F)(F)c1cccc(Nc2nc(NCCOc3ccccc3)nc3[nH]cnc23)c1  inhibition (Cyclin-dependent kinase 9, with cyclin T1 (CDK9, Homo sapiens, UniProt P50750); enzyme activity, inhibitor, Thermo Fisher kinase screening; 5 µM): 7% and 6%
OB1OCc2ccccc21  inhibition (Genome polyprotein, NS2B-NS3 protease (West Nile virus, UniProt P06935); enzyme activity, FRET; 50 µM, together with: substrate 50 µM): ≤ 10%
CN(C(=O)n1cnc(-c2ccc[n+]([O-])c2)c1)C1CCCCC1  inhibition (HRH4 (Homo sapiens, UniProt Q9H3N8); radioligand binding; 10 µM, together with: [3H]histamine): 5%
Cn1cccc1-c1cccnc1  inhibition (DRD5 (Homo sapiens, UniProt P21918); binding; 50 µM): -26.4%

Some of these lines once more:
COc1ccc2[nH]c([S+]([O-])Cc3ncc(C)c(OC)c3C)nc2c1 (centres unmarked)  inhibition (GSTO1 (Homo sapiens, UniProt P78417); 5 µM): 100%
O=C(Nc1ccc2c(c1)B(O)OC2)c1ccccc1OCc1ccccc1  inhibition (Genome polyprotein, NS2B-NS3 protease (dengue virus type 2, UniProt P29990); enzyme activity, FRET; dengue virus serotype 2; 50 µM, together with: substrate 50 µM): 14 ± 5%
